Results from different studies.
Each numbered part is a random draw from the data of one study; scales do not carry over between parts. Substitutions count along the parent as printed.

Sample 1
Target: CCND2, cyclin fold, Cln2 fusion (human)
Method: yeast growth competition, sequencing
Medium: yeast
Notes: weak parent motif
Reference: not given
Direction: higher = stronger binding
Starting sequence: RBL1 docking peptide (human); GSAKRRLFGEDPP
| Substitution | normalised enrichment score |
| --- | --- |
| G1M | -0.183 |
| A3Q | 0.198 |
| P12Q | -0.188 |
| A3T | 0.364 |
| R6W | -0.0569 |
| R5S | 0.00187 |
| P12C | 0.319 |
| S2F | -0.209 |
| L7I | 0.775 |
| G1I | 0.736 |
| L7C | 0.53 |
| R6H | 0.61 |
| E10S | 0.483 |
| D11F | 0.233 |
| R6K | 0.507 |
| R6S | 0.156 |
| A3M | -0.359 |

Sample 2
Target: Interferon regulatory factor 7, full length, phosphomimetic (IRF7, Homo sapiens, UniProt Q92985, residues 1-503, S101K/S471D/S472D/S475D/S476D/S477D/S483D/S484D/S487D)
Chain of UniProt Q92985 (whole entry, unmodified, looked up): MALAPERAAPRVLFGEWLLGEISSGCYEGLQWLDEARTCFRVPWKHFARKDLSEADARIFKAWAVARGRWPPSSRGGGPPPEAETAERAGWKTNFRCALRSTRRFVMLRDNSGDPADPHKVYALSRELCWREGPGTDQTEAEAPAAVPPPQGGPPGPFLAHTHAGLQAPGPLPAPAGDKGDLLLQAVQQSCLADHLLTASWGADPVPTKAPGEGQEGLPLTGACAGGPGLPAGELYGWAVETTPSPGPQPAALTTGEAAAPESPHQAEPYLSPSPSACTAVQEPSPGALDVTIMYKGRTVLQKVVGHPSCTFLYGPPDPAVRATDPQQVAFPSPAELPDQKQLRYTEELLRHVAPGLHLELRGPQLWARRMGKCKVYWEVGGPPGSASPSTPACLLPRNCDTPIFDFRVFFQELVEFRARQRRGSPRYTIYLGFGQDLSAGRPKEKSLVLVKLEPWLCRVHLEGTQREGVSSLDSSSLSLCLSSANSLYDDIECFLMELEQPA
Method: protein-binding microarray
Form: double-stranded DNA, one strand shown
Medium: in vitro
Tested at: 250 nM
Notes: 60-bp whole probe
Added: salmon DNA 0.4 mg/ml
Reference: random background probes
Direction: higher = stronger binding
Shared flanks, not repeated: GCCTAGCAC … GTCTTGATTCGCTTGACGCTGCTG
| Oligonucleotide | log fluorescence [z-score] |
| --- | --- |
| TAAGGACTGCTACTGCTTTAGTGCTAG | -0.681 |
| TCAAACTTAGTTTTCAAACTGTGCTAG | 0.365 |
| CTTTCTTTAACATATTCTCTTGTGCTA | 1.55 |
| TCAACTTCTCTTTTGGCACTGTGCTAG | 0.515 |
| TTAGATCTCGGTTTCGGTTAGTGCTAG | 9.05 |
| GACGATTTCAGTTCCGAGTCGTGCTAG | 1.23 |
| TCATCTATCAAAAATACAACTGTGCTA | 0.357 |
| TTAGGTTTTCTTATCCTTTAGTGCTAG | 0.976 |
| GCCTTTTTTTTTTTTTCTGAGTGCTAG | 1.37 |
| TTAGGTTTCGGGTATCGGTTTGTGCTA | 8.89 |
| CATTGCCTATTTTTCCCCTGGTGCTAG | 1.27 |
| TTTTTTTTTTTTTCTGATCCGTGCTAG | 0.9 |
| CACGGTCTCCTTCTCCTGACGTGCTAG | 0.195 |
| TCACCTTTCCAAATACCACTGTGCTAG | 1.23 |
| GACGGACTGGGGACTGGGGAGGTGCTA | -0.519 |
| TAGCTTCTCAATTAAAAAAAGTGCTAG | 0.69 |
| TCAAATCTCACTCTGTCACTGTGCTAG | 0.283 |

Sample 3
Target: Ras GTPase-activating protein-binding protein 1, full length (G3BP1, Homo sapiens, UniProt Q13283)
Chain of UniProt Q13283 (whole entry, looked up): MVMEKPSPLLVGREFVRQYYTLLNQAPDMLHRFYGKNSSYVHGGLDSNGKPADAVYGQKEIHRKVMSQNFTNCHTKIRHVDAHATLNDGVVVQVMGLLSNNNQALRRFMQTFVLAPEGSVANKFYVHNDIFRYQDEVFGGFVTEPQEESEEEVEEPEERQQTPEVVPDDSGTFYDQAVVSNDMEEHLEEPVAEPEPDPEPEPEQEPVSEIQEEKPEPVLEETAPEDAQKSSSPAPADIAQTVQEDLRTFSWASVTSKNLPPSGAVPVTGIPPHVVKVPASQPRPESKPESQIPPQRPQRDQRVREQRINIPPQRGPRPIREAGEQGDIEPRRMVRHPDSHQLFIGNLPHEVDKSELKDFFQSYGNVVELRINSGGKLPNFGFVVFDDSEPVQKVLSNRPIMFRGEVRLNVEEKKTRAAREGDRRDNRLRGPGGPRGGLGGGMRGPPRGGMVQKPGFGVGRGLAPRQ
Method: RNA Bind-n-Seq
Form: RNA
Medium: in vitro
Tested at: 200 nM
Notes: whole 134-nt RNA, ends assumed
Added: 150 mM LiCl
Reference: input library
Direction: higher = stronger binding
Library: 7-deaza-guanosine replaces G
| Oligonucleotide | log2 enrichment |
| --- | --- |
| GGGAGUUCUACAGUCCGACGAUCUCCCGACAUCUGUGGCCCUGGCACCAAGAAGGUUCAUGUCAUCUUCAACUACAAGGGCAAGAACGUGCUGAUCAACAAGGACAUCCGUUGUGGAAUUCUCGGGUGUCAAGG | -1.11 |
| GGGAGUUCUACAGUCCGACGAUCAAGUCCUGUGCUACACAUCGUAUGUACCGAAUCGGGGUUUUUGGGGUGGGGAGGGGAAAGUAUUAUGUUACGCCGUUCGGAUCUGCACUUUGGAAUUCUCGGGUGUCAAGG | 0.554 |
| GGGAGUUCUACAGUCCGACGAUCAAGUCCUGUGCUACACAUCGUAUGUACCGAAUCGGGAAAAGGAAAAGGGGAAAAGGGAAAGUAUUAUGUUACGCCGUUCGGAUCUGCACUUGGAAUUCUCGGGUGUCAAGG | 0.358 |
| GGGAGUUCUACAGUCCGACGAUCUUCCAGGCUCAAGCACGGACAUCAGUGAGGACUGGGAGAAAGACUUUGACUUGGACAUGACUGAAGAGGAGGUGCAGAUGGCACUUUCCAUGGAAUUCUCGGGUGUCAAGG | -2.47 |
| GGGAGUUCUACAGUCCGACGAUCUGCCUACGUAAUUUUUUAUCUUGAAAUAUUCAAAAUUAGGAGCCAGAUGACCAAGAUGCUCCAGAUGAACAUGAGUCGCCUCCACCUGAAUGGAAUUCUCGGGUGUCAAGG | -0.29 |
| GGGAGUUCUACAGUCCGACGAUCAGGACGUGCAGAACUUCCUCUCUGACUGCACGAUUCAUGAUGGGGCCGCAGGUGUCCAUUUCAUCUACACUAGAGAGGGCAGGCAGAGUGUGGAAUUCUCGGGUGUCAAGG | 0.623 |
| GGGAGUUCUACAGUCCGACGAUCAAGUCCUGUGCUACACAUCGUAUGUACCGAAUCGGGGAAAAGGAAAAGGGAAAAGGGAAAGUAUUAUGUUACGCCGUUCGGAUCUGCACUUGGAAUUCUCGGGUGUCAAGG | 0.201 |

Sample 4
Target: Histone acetyltransferase KAT6A, winged helix 1, GST fusion (KAT6A, Homo sapiens, UniProt Q92794, residues 1-85)
Method: protein binding microarray
Form: double-stranded DNA, one strand shown
Medium: in vitro
Tested at: not given
Notes: 8-mer, flanks averaged, mean of 2 arrays, mostly near background
Reference: not given
Direction: higher = stronger binding
Construct (chain): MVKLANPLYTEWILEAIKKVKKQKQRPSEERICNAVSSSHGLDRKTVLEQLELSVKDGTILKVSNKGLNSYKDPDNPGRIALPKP
| Oligonucleotide | E-score |
| --- | --- |
| ACTGAGCA | -0.181 |
| CCCTCCAG | 0.0476 |
| ACCTCCGG | 0.0653 |
| CTCCTGGC | -0.0373 |
| GGATCTCA | -0.0664 |
| CCCCACTC | -0.212 |
| GGGCTGAC | 0.0739 |
| AGATGCAT | -0.207 |
| AATAGCTA | -0.134 |
| CCAGCAAA | -0.159 |
| GCCACAAC | -0.0992 |

Sample 5
Target: RNA binding protein fox-1 homolog 2, RRM domain, GST-SBP tag (RBFOX2, Homo sapiens, UniProt O43251-10, residues 100-194)
Method: RNA Bind-n-Seq
Form: RNA
Medium: in vitro
Tested at: 365 nM
Notes: natural RNA segment, single round, ends assumed
Reference: no-protein control
Direction: higher = stronger binding
Construct (chain): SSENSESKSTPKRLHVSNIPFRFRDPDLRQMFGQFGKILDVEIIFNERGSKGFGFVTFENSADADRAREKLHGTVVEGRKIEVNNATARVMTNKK
| Oligonucleotide | RBNS enrichment (R) |
| --- | --- |
| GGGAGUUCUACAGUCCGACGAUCGACGCUCUCAUUAAAAUCCAUGCAGCCAAGCUCUGCGCUUUGUAGCAGCCGGCCUUGCAGAGCCUCCUCAGCUUGGGGGGCUGGGGACCCAGUCAGCUGAGAGGUCCUCUUGGAAUUCUCGGGUGCCAA | 0.531 |
| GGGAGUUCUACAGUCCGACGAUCACAGUCUAUUAAAAUUCAGCCCUAAAAUGACAAAGCCUUCUUAAAGCCUUAUUUUUAAAAUCCCCCAUUCUUGCUCAGAUUAAAAAUUGCCAAAAUACCUUCUGAACUAAUGGAAUUCUCGGGUGCCAA | 0.948 |
| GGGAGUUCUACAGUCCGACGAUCAAAGUAUGCUCUAAGGAACAAUGUUUUAAUGAAAUCUUGGAUACAAAGUGGAAUAAAAGGUUUCUGAGCAUAAAGUAGCUCUUCAGUAGUUACAACCUAUUCUUUUGCAUUGGAAUUCUCGGGUGCCAA | 0.438 |
| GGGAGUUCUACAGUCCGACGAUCCUUUCUAUAAAACUUGAAAAUAGCAAAAACCCUCAACUGUUGUAAAUCAUGCAAUUAAAGUUGAUUACUUAUAAAUAUGAACUUUGGAUCACUGUAUAGACUGUUAAAUUUGGAAUUCUCGGGUGCCAA | 0.449 |
| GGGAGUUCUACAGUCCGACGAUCGAACCAUUGGGACCUGAGGCAGGAGUGUCACCUGCGGGAGAAGUCUGCCCGCUGCCCUCUGUCAUCCCAUUCAAGAUUGUGCCAUACCAGCUGAGGUUUUUCCUCUGUCUUGGAAUUCUCGGGUGCCAA | 0.254 |
| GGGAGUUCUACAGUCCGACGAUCAGAAAGAAAGAAAGAAAGACAGCAAAGCCUGAAUUCUUUUUGAGAGAUGGAGAUGAGGUACAUCAGGGGACCUUAAGAUGCCUGAGCCCAUCUUUUAACUCUAACACAGGUGGAAUUCUCGGGUGCCAA | 0.636 |
| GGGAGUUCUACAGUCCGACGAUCUAGGUCCAGGGCCAUGAAGACUUGGAGAGCGCAGUGGCUGGGCAAGGGGCUGCUUUGGAGGGAAGAAGCAUGUGGUCUGAGUGCUGACUAGAUGAAUAGUUGAGGCACAUUGGAAUUCUCGGGUGCCAA | 4.21 |
| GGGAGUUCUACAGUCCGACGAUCGGCUGUUCUUACUGUCCAAAUGAAGCUAAAAAGAAAGGCAUCUUUCUUCCCUUUUAAAAUUGUGUAAACUGCAAAUUAUAAUAUAAUUUGAAUUUAUGAUUAUUUUCCAGUGGAAUUCUCGGGUGCCAA | 0.373 |
| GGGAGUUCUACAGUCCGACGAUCCUGACCCCUGCCACCCAGCAUAGACACACCUCACAGCUGCCCUGCCAUGCAGAGCCCUGGCCGCUGGAGACUCUUAAAGCCCCCACAGCCCUCCAGGUCCUCCAGCUCUGUGGAAUUCUCGGGUGCCAA | 0.327 |
| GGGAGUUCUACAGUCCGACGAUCGUCACUGCCUACUGCCUGGGGGCUCUAGUCAUUCCAGUGGAAGACGAAUGUAACCUGCGUGGUGAUGUGACAACUGUUUCCUCCCUGACCCCAGAGGAUCUGGCUCUAGGUGGAAUUCUCGGGUGCCAA | 0.245 |
| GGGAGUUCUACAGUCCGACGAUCACCAUGAAACCUACACUCCCUGGUAUCAUAGCGCGUCAUCACCUCAACAAGUCAGUCGUCUCCAUUGAUAUUUGUACAAAAGGUAUACAUGGGGAACACGUGUUCAUUCAUGGAAUUCUCGGGUGCCAA | 0.328 |
| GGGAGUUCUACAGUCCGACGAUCUGUGACCAGCAUGGUCCAGGAAAAAAAAAAAGACAAAAAAUCUAGAAAAUAAAAUUGGUAAAAUCUCGCUCACUGUUGUCUGUGUUUUCUGGGAACAGGAGUGGGGUGAUUGGAAUUCUCGGGUGCCAA | 0.713 |

Repeated from above (sample 2):
| Oligonucleotide | log fluorescence [z-score] |
| --- | --- |
| TTAGATCTCGGTTTCGGTTAGTGCTAG | 9.05 |
| GACGATTTCAGTTCCGAGTCGTGCTAG | 1.23 |
| TCATCTATCAAAAATACAACTGTGCTA | 0.357 |
| TTAGGTTTTCTTATCCTTTAGTGCTAG | 0.976 |
| GCCTTTTTTTTTTTTTCTGAGTGCTAG | 1.37 |
| TTAGGTTTCGGGTATCGGTTTGTGCTA | 8.89 |
| CATTGCCTATTTTTCCCCTGGTGCTAG | 1.27 |
| TTTTTTTTTTTTTCTGATCCGTGCTAG | 0.9 |
| CACGGTCTCCTTCTCCTGACGTGCTAG | 0.195 |
| TCACCTTTCCAAATACCACTGTGCTAG | 1.23 |
| GACGGACTGGGGACTGGGGAGGTGCTA | -0.519 |
